Results collected from several papers.
± gives the spread as reported.

N=C(N)NCCC[C@@H]1NC(=O)[C@H](CCCCNC(=O)CCOCCOCCOCCOCCNC(=O)CN2CCN(CC(=O)O)CCN(CC(=O)O)CCN(CC(=O)O)CC2)NC(=O)[C@@H](Cc2ccccc2)NC(=O)[C@H](CC(=O)O)NC(=O)CNC1=O [indium-111 labelled] — tumour to tissue ratio (athymic nude mice, female, U-87 MG glioma xenograft, tumour and brain; intravenous, 1 h; reference: tumour over brain): 36.5 ± 13.3
CC(C)[C@@H]1NC(=O)[C@H](CCCNC(=N)N)NC(=O)[C@H](Cc2ccc(O)cc2)NC(=O)[C@H](CO)NC(=O)[C@H](Cc2ccc(O)cc2)N(C)C(=O)[C@H](CC(N)=O)NC(=O)CNC(=O)[C@H](Cc2ccc(O)cc2)N(C)C(=O)[C@H](Cc2ccccc2)N(C)C(=O)[C@H](CC(=O)O)NC(=O)[C@H](Cc2ccc(O)cc2)NC(=O)[C@H](Cc2ccccc2)N(C)C(=O)[C@H](Cc2ccc(O)cc2)N(C)C(=O)[C@H](Cc2ccc(O)cc2)NC(=O)CSC[C@@H](C(N)=O)NC(=O)[C@@H]2CCCN2C1=O — AC50 (cofactor-independent phosphoglycerate mutase (Metamycoplasma orale, UniProt A0A448ZXM1, W431C); biochemical; Mycoplasma orale): 9.33 nM
CC(C)C[C@@H]1NC(=O)[C@H](C(C)C)NC(=O)[C@H](CO)NC(=O)CNC(=O)CNC(=O)[C@H](CCCNC(=N)N)NC(=O)[C@@H]2CCCN2C(=O)[C@@H](NC(=O)CC[C@H](NC(=O)c2ccc(N(C)Cc3cnc4nc(N)nc(N)c4n3)cc2)C(=O)O)C(C)(C)SSC[C@@H](C(=O)O)NC(=O)CNC(=O)[C@H]([C@@H](C)O)NC(=O)[C@H](C(C)C)NC1=O — degradation rate constant (HPLC; Acetate buffer; pH 5.0, 70 °C): 0.0013 h⁻¹
CC[C@H]1c2cc3[nH]c4c(c3C)C(=O)[C@H](C(=O)OC)c4c3nc(cc4[nH]c(cc(n2)[C@@H]1C)c(C(C)=O)c4C)[C@@H](C)[C@@H]3CCC(=O)NCC(=O)N[C@H](CC(=O)O)C(=O)N[C@H](CCC(=O)O)C(=O)N[C@@H](C(=O)N[C@H](CC(=O)O)C(=O)NCC(=O)N[C@H](CO)C(=O)NCC(=O)N[C@H](CCCCN)C(N)=O)C(C)C — time to strong tumour fluorescence (nude mouse HT-1080 xenograft; intravenous, 25 nmol, low folate receptor): 5 h
CCCC[C@H](NC(=O)CNC(=O)CNC(=O)c1ccc(NN)nc1)C(=O)N[C@H]1CC(=O)NCCCC[C@@H](C(N)=O)NC(=O)[C@H](Cc2c[nH]c3ccccc23)NC(=O)[C@H](CCCNC(=N)N)NC(=O)[C@@H](Cc2ccccc2)NC(=O)[C@H](Cc2c[nH]cn2)NC1=O [technetium-99m labelled] — uptake (C57 mouse, B16/F1 melanoma, bone; 2 h, together with: L-lysine 12 mg): 0.13 ± 0.08 %ID/g
CSCC[C@H](NC(=O)[C@H](CC(C)C)NC(=O)[C@H](Cc1c[nH]cn1)NC(=O)CNC(=O)[C@@H](NC(=O)[C@H](C)NC(=O)[C@H](Cc1c[nH]c2ccccc12)NC(=O)[C@H](CCC(N)=O)NC(=O)CCCCCNC(=O)CN1CCN(CC(=O)O)CCN(CC(=O)O)CC1)C(C)C)C(N)=O [gallium-68 labelled] — mean tumour uptake (microPET imaging; nude mouse PC-3 xenograft, PC-3 tumour; intravenous, 3.7 MBq, 60 min): 2.04 ± 0.34 %ID/g
N=C(N)NCCC[C@@H]1NC(=O)[C@H](CCCCNC(=O)CC[C@H](NC(=O)CCOCCOCCOCCOCCNC(=O)CC[C@H](NC(=O)CN2CCN(CC(=O)O)CCN(CC(=O)O)CCN(CC(=O)O)CC2)C(=O)NCCOCCOCCOCCOCCC(=O)N[C@@H](CCC(=O)NCCCC[C@@H]2NC(=O)[C@@H](Cc3ccccc3)NC(=O)[C@H](CC(=O)O)NC(=O)CNC(=O)[C@H](CCCNC(=N)N)NC2=O)C(=O)NCCCC[C@@H]2NC(=O)[C@@H](Cc3ccccc3)NC(=O)[C@H](CC(=O)O)NC(=O)CNC(=O)[C@H](CCCNC(=N)N)NC2=O)C(=O)NCCCC[C@@H]2NC(=O)[C@@H](Cc3ccccc3)NC(=O)[C@H](CC(=O)O)NC(=O)CNC(=O)[C@H](CCCNC(=N)N)NC2=O)NC(=O)[C@@H](Cc2ccccc2)NC(=O)[C@H](CC(=O)O)NC(=O)CNC1=O [indium-111 labelled] — tissue uptake (athymic nude mice, female, U-87 MG glioma xenograft, U-87 MG tumour; intravenous, 3 µCi, 24 h): 6.52 ± 3.85 %ID/g
N=C(N)NCCC[C@@H]1NC(=O)[C@H](CCCCNC(=O)CCOCCOCCOCCOCCNC(=O)CC[C@H](NC(=O)CCOCCOCCOCCOCCNC(=O)c2ccc(NN)nc2)C(=O)NCCOCCOCCOCCOCCC(=O)NCCCC[C@@H]2NC(=O)[C@@H](Cc3ccccc3)NC(=O)[C@H](CC(=O)O)NC(=O)CNC(=O)[C@H](CCCNC(=N)N)NC2=O)NC(=O)[C@@H](Cc2ccccc2)NC(=O)[C@H](CC(=O)O)NC(=O)CNC1=O [technetium-99m labelled] — tissue-to-tissue ratio (female athymic nude mice, U-87 MG glioma xenograft, tumour and liver; intravenous, 2.5 µCi, 60 min; reference: tumour over liver): 5.14 ± 1.46
C=Cc1c(C)c2cc3nc(c4c5[nH]c(cc6nc(cc1[nH]2)C(C)=C6CC)c(C)c5C(=O)C4)[C@@H](CCC(=O)NCC(=O)N1CCC[C@H]1C(=O)N[C@@H](CC(C)C)C(=O)NCC(=O)N[C@@H](Cc1ccccc1)C(=O)N[C@@H](CCCNC(=N)N)C(=O)N[C@H](C(=O)NCC(=O)N[C@@H](CCCCN)C(N)=O)C(C)C)[C@@H]3C — decrease of fluorescence signal (in vivo fluorescence imaging; C57BL/6J mouse, DMM osteoarthritis model, knee joint; intra-articular, 1 nmol, 6 h): 75 ± 6%
CSCC[C@H](NC(=O)[C@H](CC(C)C)NC(=O)[C@H](Cc1c[nH]cn1)NC(=O)CNC(=O)[C@@H](NC(=O)[C@H](C)NC(=O)[C@H](Cc1c[nH]c2ccccc12)NC(=O)[C@H](CCC(N)=O)NC(=O)CCCCCNC(=O)CNC(=O)CNC(=O)CNC(=O)CSC(C)=O)C(C)C)C(N)=O [technetium-99m labelled] — tissue uptake (Swiss mouse, spleen; intravenous, 18.5 MBq, 30 min): 0.64 ± 0.05 %ID/g
CCCC[C@@H](NC(=O)[C@H](Cc1c[nH]c2ccccc12)NC(=O)[C@@H](N)CSC1CC(=O)N(CCCCCC(=O)NN=C(CO)[C@]2(O)Cc3c(O)c4c(c(O)c3[C@@H](O[C@H]3C[C@H](N)[C@H](O)[C@H](C)O3)C2)C(=O)c2c(OC)cccc2C4=O)C1=O)C(=O)N[C@@H](CCC(=O)O)C(=O)N[C@@H](C)C(=O)N[C@@H](C)C(=O)N[C@@H](Cc1ccc(O)cc1)C(=O)N[C@@H](CCC(N)=O)C(=O)N[C@H](CCCNC(=N)N)C(=O)N[C@@H](Cc1ccccc1)C(=O)N[C@@H](CC(C)C)C(N)=O (some centres unmarked) — time to complete hydrolysis (DMEM/F12 with HEPES; concentration not given, 37 °C): < 3 h
N=C(N)NCCC[C@@H]1NC(=O)[C@H](CCCCNC(=O)CNC(=O)CNC(=O)CNC(=O)CC[C@H](NC(=O)CCOCCOCCOCCOCCNC(=O)CC[C@H](NC(=O)CN2CCN(CC(=O)O)CCN(CC(=O)O)CCN(CC(=O)O)CC2)C(=O)NCCOCCOCCOCCOCCC(=O)N[C@@H](CCC(=O)NCC(=O)NCC(=O)NCC(=O)NCCCC[C@@H]2NC(=O)[C@@H](Cc3ccccc3)NC(=O)[C@H](CC(=O)O)NC(=O)CNC(=O)[C@H](CCCNC(=N)N)NC2=O)C(=O)NCC(=O)NCC(=O)NCC(=O)NCCCC[C@@H]2NC(=O)[C@@H](Cc3ccccc3)NC(=O)[C@H](CC(=O)O)NC(=O)CNC(=O)[C@H](CCCNC(=N)N)NC2=O)C(=O)NCC(=O)NCC(=O)NCC(=O)NCCCC[C@@H]2NC(=O)[C@@H](Cc3ccccc3)NC(=O)[C@H](CC(=O)O)NC(=O)CNC(=O)[C@H](CCCNC(=N)N)NC2=O)NC(=O)[C@@H](Cc2ccccc2)NC(=O)[C@H](CC(=O)O)NC(=O)CNC1=O [indium-111 labelled] — tissue uptake (athymic nude mice, female, U-87 MG glioma xenograft, bone; intravenous, 3 µCi, 72 h): 0.42 ± 0.11 %ID/g
CC(C)C[C@H](NC(=O)[C@@H]1CCCN1C(=O)[C@H](CCCCN)NC(=O)[C@@H](N)CO)C(=O)N1CCC[C@H]1C(=O)N[C@@H](CCC(=O)O)C(=O)N[C@H](C(=O)N[C@H](C(=O)N[C@@H](CC(=O)O)C(=O)N[C@@H](CCC(=O)O)C(=O)N[C@@H](Cc1ccc(O)cc1)C(=O)N[C@@H](Cc1cn(CCOCCOCCOCCNC(=O)CCc2ccc(O)c(CN(CCN(CC(=O)O)Cc3cc(CCC(=O)NCCCC[C@H](NC(=O)N[C@@H](CCC(=O)O)C(=O)O)C(=O)O)ccc3O)CC(=O)O)c2)nn1)C(=O)O)[C@@H](C)O)C(C)C [gallium-68 labelled] — standardized uptake value (NMRI nu/nu mice, LNCaP tumour, skin; 135.34 nmol/kg, low molar activity): 0.09 g/g
N=C(N)NCCC[C@@H]1NC(=O)[C@H](CCCCNC(=O)CCOCCOCCOCCOCCNC(=O)CC[C@H](NC(=O)CCOCCOCCOCCOCCNC(=O)CC[C@H](NC(=O)CN2CCN(CC(=O)O)CCN(CC(=O)O)CCN(CC(=O)O)CC2)C(=O)NCCOCCOCCOCCOCCC(=O)N[C@@H](CCC(=O)NCCOCCOCCOCCOCCC(=O)NCCCC[C@@H]2NC(=O)[C@@H](Cc3ccccc3)NC(=O)[C@H](CC(=O)O)NC(=O)CNC(=O)[C@H](CCCNC(=N)N)NC2=O)C(=O)NCCOCCOCCOCCOCCC(=O)NCCCC[C@@H]2NC(=O)[C@@H](Cc3ccccc3)NC(=O)[C@H](CC(=O)O)NC(=O)CNC(=O)[C@H](CCCNC(=N)N)NC2=O)C(=O)NCCOCCOCCOCCOCCC(=O)NCCCC[C@@H]2NC(=O)[C@@H](Cc3ccccc3)NC(=O)[C@H](CC(=O)O)NC(=O)CNC(=O)[C@H](CCCNC(=N)N)NC2=O)NC(=O)[C@@H](Cc2ccccc2)NC(=O)[C@H](CC(=O)O)NC(=O)CNC1=O [indium-111 labelled] — tissue uptake (female athymic nude mice, muscle; intravenous, 3 µCi, 4 h, U-87 MG glioma xenograft): 0.67 ± 0.09 %ID/g
CN[C@](C)(C[18F])C(=O)O — tracer uptake (A549 tumour model; host not given, tumour; 1 h, tumour-bearing): 3.8 %ID/g
N=C(N)NCCC[C@@H]1NC(=O)[C@H](CCCCNC(=O)CC[C@H](NC(=O)CCOCCOCCOCCOCCNC(=O)CN2CCN(CC(=O)O)CCN(CC(=O)O)CCN(CC(=O)O)CC2)C(=O)NCCCC[C@@H]2NC(=O)[C@@H](Cc3ccccc3)NC(=O)[C@H](CC(=O)O)NC(=O)CNC(=O)[C@H](CCCNC(=N)N)NC2=O)NC(=O)[C@@H](Cc2ccccc2)NC(=O)[C@H](CC(=O)O)NC(=O)CNC1=O [indium-111 labelled] — tissue uptake (athymic nude mice, female, U-87 MG glioma xenograft, bone; intravenous, 3 µCi, 24 h): 0.79 ± 0.11 %ID/g
CCCC[C@H](NC(=O)CCCCCCCNC(=O)c1ccc(NN)nc1)C(=O)N[C@H]1CC(=O)NCCCC[C@@H](C(N)=O)NC(=O)[C@H](Cc2c[nH]c3ccccc23)NC(=O)[C@H](CCCNC(=N)N)NC(=O)[C@@H](Cc2ccccc2)NC(=O)[C@H](Cc2c[nH]cn2)NC1=O [technetium-99m labelled] — uptake (C57 mouse, B16/F1 melanoma, skin; intravenous, 24 h): 0.15 ± 0.05 %ID/g

Repeated from above:
CC(C)[C@@H]1NC(=O)[C@H](CCCNC(=N)N)NC(=O)[C@H](Cc2ccc(O)cc2)NC(=O)[C@H](CO)NC(=O)[C@H](Cc2ccc(O)cc2)N(C)C(=O)[C@H](CC(N)=O)NC(=O)CNC(=O)[C@H](Cc2ccc(O)cc2)N(C)C(=O)[C@H](Cc2ccccc2)N(C)C(=O)[C@H](CC(=O)O)NC(=O)[C@H](Cc2ccc(O)cc2)NC(=O)[C@H](Cc2ccccc2)N(C)C(=O)[C@H](Cc2ccc(O)cc2)N(C)C(=O)[C@H](Cc2ccc(O)cc2)NC(=O)CSC[C@@H](C(N)=O)NC(=O)[C@@H]2CCCN2C1=O — AC50 (cofactor-independent phosphoglycerate mutase (Metamycoplasma orale, UniProt A0A448ZXM1, W431C); biochemical; Mycoplasma orale): 9.33 nM
CC[C@H]1c2cc3[nH]c4c(c3C)C(=O)[C@H](C(=O)OC)c4c3nc(cc4[nH]c(cc(n2)[C@@H]1C)c(C(C)=O)c4C)[C@@H](C)[C@@H]3CCC(=O)NCC(=O)N[C@H](CC(=O)O)C(=O)N[C@H](CCC(=O)O)C(=O)N[C@@H](C(=O)N[C@H](CC(=O)O)C(=O)NCC(=O)N[C@H](CO)C(=O)NCC(=O)N[C@H](CCCCN)C(N)=O)C(C)C — time to strong tumour fluorescence (nude mouse HT-1080 xenograft; intravenous, 25 nmol, low folate receptor): 5 h
